Measurements from different studies.
Compare with care: the assays were run in different laboratories. ± marks the error that the study gave.
Urease: Urease (Canavalia ensiformis, UniProt P07374)
Cnr2: Cannabinoid receptor 2 (Cnr2, Mus musculus, UniProt P47936)
MC4R: Melanocortin receptor 4 (MC4R, Homo sapiens, UniProt P32245)
Oprk1: Kappa-type opioid receptor (Oprk1, Mus musculus, UniProt P33534)

With CP(=O)(O)CN the Ki was over 1000 µM (Urease; inhibitor; pH 7).
With CC(C)=CCCC1(C)C=Cc2c(ccc3cc(-c4cc(O)cc(O)c4CC=C(C)C)oc23)O1 (stereo not shown) the Ki was 0.78 µM (Cholinesterase (BCHE, Equus caballus, UniProt P81908); enzyme activity, inhibitor).
COc1c(OCCOCCOCCOCCOCCOCCOCCOCCOc2cccc(C(=O)C3CCN(CCc4ccc(F)cc4)CC3)c2OC)cccc1C(=O)C1CCN(CCc2ccc(F)cc2)CC1 gave a Ki of 0.0044 µM (5-hydroxytryptamine receptor 2A (HTR2A, Homo sapiens, UniProt P28223); ligand displacement, radioligand).
The Ki of Cc1cc2c(cc1Cl)Cc1c(C(=O)NC3CC4CC(C3C)C4(C)C)nn(-c3ccc(Cl)cc3Cl)c1-2 (stereo not shown) is reported as 0.35 µM (Cnr2; ligand displacement, radioligand).
With CC1=C[C@H](O/C=C2/C(=O)O[C@H]3c4c(ccc(C)c4C)[C@H](O)[C@@H]23)OC1=O (racemic) the Ki was 21.5 µM (RMS3 (Lathyrus oleraceus, UniProt A0A109QYD3); cell-free assay, inhibitor).
The Ki of CCCCCc1cc(O)c2c(c1)OC(C)(C)C1CCC(C(=O)OC3OC(C(=O)O)C(O)C(O)C3O)=CC21 (stereo not shown) is reported as 1.1 ± 0.47 µM (Cytochrome P450 2B6 (CYP2B6, Homo sapiens, UniProt P20813); inhibitor; human, pooled liver microsomes; pH 7.4, added: bupropion 12.5 to 100 µM).
The Ki of CC[C@H](C)[C@H](NC(=O)CN)C(=O)N[C@H](C(=O)N[C@@H](CC(N)=O)C(=O)N[C@H](C(=O)N[C@@H](CC(C)C)C(=O)N[C@@H](CCC(N)=O)C(=O)N[C@@H](CCCCN)C(=O)N[C@@H](Cc1ccc(O)cc1)C(=O)N[C@@H](Cc1ccc(O)cc1)C(=O)N[C@H]1CSSC[C@@H]2NC(=O)[C@H](CCCCN)NC(=O)[C@H](CCCNC(=N)N)NC(=O)CNC(=O)[C@H](CCCNC(=N)N)NC(=O)[C@H]([C@@H](C)O)NC(=O)[C@H](CO)NC(=O)[C@@H]3CSSC[C@H](NC(=O)[C@H](CCCNC(=N)N)NC(=O)CNC(=O)CNC(=O)[C@H](CCCNC(=N)N)NC(=O)[C@H](C(C)C)NC(=O)[C@H](CCCNC(=N)N)NC1=O)C(=O)N[C@@H](C)C(=O)N[C@@H](C(C)C)C(=O)N[C@@H](CC(C)C)C(=O)N[C@@H](CO)C(=O)N[C@@H](CSSC[C@@H](C(=O)N[C@@H](CCCNC(=N)N)C(=O)N[C@@H](C)C(=O)N[C@@H](CCCCN)C(=O)N[C@@H](C)C(N)=O)NC2=O)C(=O)N[C@@H](CC(C)C)C(=O)N1CCC[C@H]1C(=O)N[C@@H](CCCCN)C(=O)N[C@@H](CCC(=O)O)C(=O)N[C@@H](CCC(=O)O)C(=O)N[C@@H](CCC(N)=O)C(=O)N[C@@H]([C@@H](C)CC)C(=O)NCC(=O)N[C@@H](CCCCN)C(=O)N3)[C@@H](C)O)[C@@H](C)CC is reported as 0.083 µM (MC4R; ligand displacement in cells).
CC(=O)NCP(C)(=O)O has a Ki of 295 µM (Urease; enzyme activity, inhibitor, absorbance; pH 7).
The Ki of C[C@H](NC(=O)[C@H](CCC(=O)O)NC(=O)[C@H](CO)NC(=O)[C@H](C)NC(=O)[C@H](CO)NC(=O)CSCCNC(=O)CCNC(=O)[C@H](O)C(C)(C)COP(=O)(O)OP(=O)(O)OC[C@H]1O[C@@H](n2cnc3c(N)ncnc32)[C@H](O)[C@@H]1OP(=O)(O)O)C(N)=O is reported as 8.9 ± 0.1 µM (ard1, with Naa15 (Schizosaccharomyces pombe, UniProt Q9UTI3); noncompetitive with peptide substrate).
With COc1ccc(CC[C@H]2OC(=O)[C@@H]3CCCCN3C(=O)C(=O)C(C)(C)COC(=O)/C=C/CCN(C)C(=O)[C@H](CC(C)C)N(C)C(=O)[C@@H]3CCCN3C(=O)[C@H](Cc3ccccc3)N(C)C(=O)[C@H](c3ccccc3)NC(=O)CCC(=O)Nc3cccc2c3)cc1OC the Ki was 0.156 ± 0.033 µM (Equilibrative nucleoside transporter 1 (SLC29A1, Homo sapiens, UniProt Q99808)).
The Ki of C[C@H]1[C@H]2CCC[C@]1(c1cccc(O)c1)CCN2CCc1ccccc1 is reported as 0.0121 µM (Oprk1; ligand displacement, radioligand; cell membranes).
The Ki of O=C(NCCN1CCC2(CC1)C(=O)NCN2c1ccccc1)c1ccc2ccccc2c1 is reported as 0.6 µM (Alpha-2C adrenergic receptor (ADRA2C, Homo sapiens, UniProt P18825); ligand displacement, radioligand).
Cc1cc2c(cc1Cl)-c1c(c(C(=O)NC3C4(C)CCC(C4)C3(C)C)nn1-c1ccc(Cl)cc1Cl)C2 (stereo not shown) has a Ki of 0.09 µM (Cnr2; ligand displacement, radioligand).
The Ki of CC[C@H](C)[C@H](NC(=O)CN)C(=O)N[C@H](C(=O)N[C@@H](CC(N)=O)C(=O)N[C@H](C(=O)N[C@@H](CC(C)C)C(=O)N[C@@H](CCC(N)=O)C(=O)N[C@@H](CCCCN)C(=O)N[C@@H](Cc1ccc(O)cc1)C(=O)N[C@@H](Cc1ccc(O)cc1)C(=O)N[C@H]1CSSC[C@@H]2NC(=O)[C@H](CCCCN)NC(=O)[C@H](C)NC(=O)CNC(=O)[C@H](C)NC(=O)[C@H]([C@@H](C)O)NC(=O)[C@H](CO)NC(=O)[C@@H]3CSSC[C@H](NC(=O)[C@H](CCCNC(=N)N)NC(=O)CNC(=O)CNC(=O)[C@H](CCCNC(=N)N)NC(=O)[C@H](C(C)C)NC(=O)[C@H](CCCNC(=N)N)NC1=O)C(=O)N[C@@H](C)C(=O)N[C@@H](C(C)C)C(=O)N[C@@H](CC(C)C)C(=O)N[C@@H](CO)C(=O)N[C@@H](CSSC[C@@H](C(=O)N[C@@H](CCCNC(=N)N)C(=O)N[C@@H](CCCNC(=N)N)C(=O)N[C@@H](CCCCN)C(=O)N[C@@H](CCCCN)C(N)=O)NC2=O)C(=O)N[C@@H](CC(C)C)C(=O)N1CCC[C@H]1C(=O)N[C@@H](CCCCN)C(=O)N[C@@H](CCC(=O)O)C(=O)N[C@@H](CCC(=O)O)C(=O)N[C@@H](CCC(N)=O)C(=O)N[C@@H]([C@@H](C)CC)C(=O)NCC(=O)N[C@@H](CCCCN)C(=O)N3)[C@@H](C)O)[C@@H](C)CC is reported as 0.131 µM (MC4R; ligand displacement in cells).
With Cc1cc(O)c(I)c(C)c1C[C@H](N)C(=O)N[C@H](C)C(=O)N[C@@H](Cc1ccccc1)C(=O)N[C@@H](Cc1ccccc1)C(N)=O the Ki was 0.298 µM (Oprk1; ligand displacement, radioligand; cell membranes).
C[N+](C)(CCn1cc(C[C@@H](NC(=O)c2cc(I)cc(I)c2I)C(=O)NCC2CCC(C(=O)N[C@H](Cc3ccc4ccccc4c3)C(=O)NCCCC[C@H](NC(=O)N[C@@H](CCC(=O)O)C(=O)O)C(=O)O)CC2)nn1)C[B-](F)(F)F (stereo partly shown) has a Ki of 0.00049 µM (Glutamate carboxypeptidase 2 (FOLH1, Homo sapiens, UniProt Q04609); binding, radioligand competition; LNCaP; added: 18F-labelled compound).
COC(=O)C[C@H](NC(=O)C(NC(=O)OCc1ccccc1)C(C)C)C(=O)CF (stereo partly shown) has a Ki of over 200 µM (Serine protease 1 (PRSS1, Bos taurus, UniProt P00760); inhibitor).
O=P(O)(O)CNCc1ccccc1 gave a Ki of over 1000 µM (Urease; inhibitor; pH 7).
CC[C@H](C)[C@H](NC(=O)CN)C(=O)N[C@H](C(=O)N[C@@H](CC(N)=O)C(=O)N[C@H](C(=O)N[C@@H](CC(C)C)C(=O)N[C@@H](CCC(N)=O)C(=O)N[C@@H](CCCCN)C(=O)N[C@@H](Cc1ccc(O)cc1)C(=O)N[C@@H](Cc1ccc(O)cc1)C(=O)N[C@H]1CSSC[C@@H]2NC(=O)[C@H](CCCCN)NC(=O)[C@H](CCCNC(=N)N)NC(=O)CNC(=O)[C@H](CCCNC(=N)N)NC(=O)[C@H]([C@@H](C)O)NC(=O)[C@H](CO)NC(=O)[C@@H]3CSSC[C@H](NC(=O)[C@H](CCC(N)=O)NC(=O)CNC(=O)CNC(=O)[C@H](CCC(N)=O)NC(=O)[C@H](C(C)C)NC(=O)[C@H](CCCNC(=N)N)NC1=O)C(=O)N[C@@H](C)C(=O)N[C@@H](C(C)C)C(=O)N[C@@H](CC(C)C)C(=O)N[C@@H](CO)C(=O)N[C@@H](CSSC[C@@H](C(=O)N[C@@H](CCC(N)=O)C(=O)N[C@@H](CCC(N)=O)C(=O)N[C@@H](CCC(N)=O)C(=O)N[C@@H](CCC(N)=O)C(N)=O)NC2=O)C(=O)N[C@@H](CC(C)C)C(=O)N1CCC[C@H]1C(=O)N[C@@H](CCC(N)=O)C(=O)N[C@@H](CCC(=O)O)C(=O)N[C@@H](CCC(=O)O)C(=O)N[C@@H](CCC(N)=O)C(=O)N[C@@H]([C@@H](C)CC)C(=O)NCC(=O)N[C@@H](CCCCN)C(=O)N3)[C@@H](C)O)[C@@H](C)CC gave a Ki of 1.57 µM (MC4R; ligand displacement in cells).
